# Published values pooled from the literature.
# Protocols differ between the studies behind these lines. Numbers after ± are the reported error.
SMILES,assay,test system,conditions,AUC(0-inf)
CN[C@@H]1C[C@H]2O[C@@](C)([C@@H]1OC)n1c3ccccc3c3c4c(c5c6ccccc6n2c5c31)C(=O)N[C@@H]4O,,human patients,"intravenous infusion, 34 mg/m^2/24 h, 72 h infusion, cycle 1, mean, with: prednisone",8350 µg·h/mL
COc1ccc2[nH]cc(CCN(C)C)c2c1,,"Tg-CYP2D6 humanized mouse, serum","intraperitoneal, 2 mg/kg, with: harmaline 5 mg/kg i.p. pretreatment",1.27 ± 0.208 µM·h
O[C@H]1CCCN[C@@H]1CCCn1cnc2c(Cl)c(Cl)ccc21,,"human, plasma","oral, 600 mg single dose, capsule, geometric mean",1.92 µg·h/mL
Cc1ncc(OC[C@@]2(c3cccc(F)c3)C[C@H]2C(=O)Nc2ccc(F)cn2)c(C)n1,,"human, plasma","10 mg, alone, geometric mean",0.374 µg·h/mL
Cc1ncc2n1-c1ccc(Cl)cc1C(c1ccccc1F)=NC2,,"healthy human volunteers, plasma","oral, 5 mg single dose, geometric mean, with: double-strength cranberry juice",0.286 µM·h
CC[C@@]1(O)C(=O)OCc2c1cc1n(c2=O)Cc2cc3c(CN(C)C)c(O)ccc3nc2-1,,"human patients, plasma","oral, 8 mg weekly, day 1, geometric mean, alone",0.157 µg·h/mL
Oc1ccc2cc3ccc4cccc5ccc(c2c1)c3c45,UPLC-AMS,"human, plasma","oral, 100 ng of [14C]-BaP",104 ± 213 fg BaP equivalents·h/mL
CC[C@H](C)[C@H](NC(=O)[C@H](CC(C)C)NC(=O)[C@H](Cc1c[nH]c2ccccc12)NC(=O)[C@H](CCC(N)=O)NC(=O)[C@@H](NC(=O)[C@H](Cc1ccccc1)NC(=O)[C@H](C)NC(=O)[C@H](CCCCNC(=O)COCCOCCNC(=O)COCCOCCNC(=O)CC[C@H](NC(=O)CCCCCCCCCCCCCCCCCCC(=O)O)C(=O)O)NC(=O)[C@H](CCC(N)=O)NC(=O)[C@H](C)NC(=O)[C@@H](NC(=O)[C@H](CCCCN)NC(=O)[C@H](CC(=O)O)NC(=O)[C@H](CC(C)C)NC(=O)C(C)(C)NC(=O)[C@@H](NC(=O)[C@H](CO)NC(=O)[C@H](Cc1ccc(O)cc1)NC(=O)[C@H](CC(=O)O)NC(=O)[C@H](CO)NC(=O)[C@@H](NC(=O)[C@H](Cc1ccccc1)NC(=O)[C@@H](NC(=O)CNC(=O)[C@H](CCC(=O)O)NC(=O)C(C)(C)NC(=O)[C@@H](N)Cc1ccc(O)cc1)[C@@H](C)O)[C@@H](C)O)[C@@H](C)CC)[C@@H](C)CC)C(C)C)C(=O)N[C@@H](C)C(=O)NCC(=O)NCC(=O)N1CCC[C@H]1C(=O)N[C@@H](CO)C(=O)N[C@@H](CO)C(=O)NCC(=O)N[C@@H](C)C(=O)N1CCC[C@H]1C(=O)N1CCC[C@H]1C(=O)N1CCC[C@H]1C(=O)N[C@@H](CO)C(N)=O,,"human, moderate hepatic impairment, plasma","subcutaneous, 5 mg",84.1 µg·h/mL
Oc1ccc2ccc3c4ccccc4cc4ccc1c2c43,UPLC-AMS,"human, plasma","oral, 250 ng of [14C]-BaP",63.1 ± 62 fg BaP equivalents·h/mL
COc1ccsc1CNCC[C@@]1(c2ccccn2)CCOC2(CCCC2)C1,,"healthy human, normal renal function, plasma","intravenous, 1 mg single dose, arithmetic mean",0.0183 µg·h/mL
CCCCCOc1ccc(-c2ccc(-c3ccc(C(=O)N[C@H]4C[C@@H](O)[C@@H](OCC[N+](C)(C)C)NC(=O)[C@@H]5[C@@H](O)[C@@H](C)CN5C(=O)[C@H]([C@@H](C)O)NC(=O)[C@H]([C@H](O)[C@@H](O)c5ccc(O)cc5)NC(=O)[C@@H]5C[C@@H](O)CN5C(=O)[C@H]([C@@H](C)O)NC4=O)cc3)cc2)cc1,,"healthy adult humans, plasma","subcutaneous, 10 mg, median",37.1 µg·h/mL
CC[C@H](C)[C@H](NC(=O)[C@H](CC(C)C)NC(=O)[C@H](Cc1c[nH]c2ccccc12)NC(=O)[C@H](CCC(N)=O)NC(=O)[C@@H](NC(=O)[C@H](Cc1ccccc1)NC(=O)[C@H](C)NC(=O)[C@H](CCCCNC(=O)COCCOCCNC(=O)COCCOCCNC(=O)CC[C@H](NC(=O)CCCCCCCCCCCCCCCCCCC(=O)O)C(=O)O)NC(=O)[C@H](CCC(N)=O)NC(=O)[C@H](C)NC(=O)[C@@H](NC(=O)[C@H](CCCCN)NC(=O)[C@H](CC(=O)O)NC(=O)[C@H](CC(C)C)NC(=O)C(C)(C)NC(=O)[C@@H](NC(=O)[C@H](CO)NC(=O)[C@H](Cc1ccc(O)cc1)NC(=O)[C@H](CC(=O)O)NC(=O)[C@H](CO)NC(=O)[C@@H](NC(=O)[C@H](Cc1ccccc1)NC(=O)[C@@H](NC(=O)CNC(=O)[C@H](CCC(=O)O)NC(=O)C(C)(C)NC(=O)[C@@H](N)Cc1ccc(O)cc1)[C@@H](C)O)[C@@H](C)O)[C@@H](C)CC)[C@@H](C)CC)C(C)C)C(=O)N[C@@H](C)C(=O)NCC(=O)NCC(=O)N1CCC[C@H]1C(=O)N[C@@H](CO)C(=O)N[C@@H](CO)C(=O)NCC(=O)N[C@@H](C)C(=O)N1CCC[C@H]1C(=O)N1CCC[C@H]1C(=O)N1CCC[C@H]1C(=O)N[C@@H](CO)C(N)=O,,"human end-stage renal disease on dialysis, plasma","subcutaneous, 5 mg single, geometric mean",93.4 µg·h/mL
COc1ccc(C[C@@H]2NC(=O)[C@H]([C@@H](C)O)NC(=O)[C@@H]3[C@@H]4CCN3C(=O)[C@@H]3Cc5cn(c6ccc(F)cc56)CCCCCCN(Cc5ccc(cc5)CCNC(=O)[C@]5(C)CCCN5C2=O)C(=O)CCC(=O)N[C@@H](C)C(=O)N[C@H](CNC(=O)CCCCC[N+](C)(C)C)C(=O)N[C@@H](Cc2cccc(c2)CNC(=O)CO4)C(=O)N3)cc1,,"fasted healthy humans, plasma","oral, 100 mg single dose, with 1800 mg Labrasol, geometric mean",1.08 µM·h
O=c1[nH]c(Cc2ccccn2)nc2c1cnn2C1CCOCC1,,"healthy male human, plasma","oral, 100 mg, geometric mean",6.06 µM·h

# A few entries again:
SMILES,assay,test system,conditions,AUC(0-inf)
CC[C@H](C)[C@H](NC(=O)[C@H](CC(C)C)NC(=O)[C@H](Cc1c[nH]c2ccccc12)NC(=O)[C@H](CCC(N)=O)NC(=O)[C@@H](NC(=O)[C@H](Cc1ccccc1)NC(=O)[C@H](C)NC(=O)[C@H](CCCCNC(=O)COCCOCCNC(=O)COCCOCCNC(=O)CC[C@H](NC(=O)CCCCCCCCCCCCCCCCCCC(=O)O)C(=O)O)NC(=O)[C@H](CCC(N)=O)NC(=O)[C@H](C)NC(=O)[C@@H](NC(=O)[C@H](CCCCN)NC(=O)[C@H](CC(=O)O)NC(=O)[C@H](CC(C)C)NC(=O)C(C)(C)NC(=O)[C@@H](NC(=O)[C@H](CO)NC(=O)[C@H](Cc1ccc(O)cc1)NC(=O)[C@H](CC(=O)O)NC(=O)[C@H](CO)NC(=O)[C@@H](NC(=O)[C@H](Cc1ccccc1)NC(=O)[C@@H](NC(=O)CNC(=O)[C@H](CCC(=O)O)NC(=O)C(C)(C)NC(=O)[C@@H](N)Cc1ccc(O)cc1)[C@@H](C)O)[C@@H](C)O)[C@@H](C)CC)[C@@H](C)CC)C(C)C)C(=O)N[C@@H](C)C(=O)NCC(=O)NCC(=O)N1CCC[C@H]1C(=O)N[C@@H](CO)C(=O)N[C@@H](CO)C(=O)NCC(=O)N[C@@H](C)C(=O)N1CCC[C@H]1C(=O)N1CCC[C@H]1C(=O)N1CCC[C@H]1C(=O)N[C@@H](CO)C(N)=O,,"human, moderate hepatic impairment, plasma","subcutaneous, 5 mg",84.1 µg·h/mL
CC[C@@]1(O)C(=O)OCc2c1cc1n(c2=O)Cc2cc3c(CN(C)C)c(O)ccc3nc2-1,,"human patients, plasma","oral, 8 mg weekly, day 1, geometric mean, alone",0.157 µg·h/mL
